Results gathered from unrelated publications.
Lines come from different studies, so protocols differ. ± marks the error that the study gave.

`Cc1ccc(S(=O)(=O)N2C(=O)CSC2c2ccccc2[N+](=O)[O-])cc1` (stereo not shown) gave an MIC of 64 µg/mL (Salmonella enterica; microbial growth, broth dilution; TYPHIMURIUM).
`pneumocandin K` gave an MIC of 0.2 µg/mL (Candida tropicalis; broth microdilution, resazurin; ATCC 750; 24 h, 35 °C).
For `CC1(C)SC2C(NC(=O)C(NC(=O)C3=C(O)C(c4ccccc4)NC3=O)c3ccccc3)C(=O)N2C1C(=O)O` (stereo not shown), the MIC was 12.5 µg/mL (Escherichia coli; broth microdilution; BW25113, Mueller-Hinton broth; with: CCCP 50 µg/mL).
The MIC of `CCc1cc(=O)c2c(OCC3CO3)c3ccoc3c(OC)c2o1` (stereo not shown) is reported as > 256 µg/mL (Staphylococcus epidermidis; broth microdilution; ATCC 12228; 19 h, 35 °C).
With `c1ccc(NCc2ccc(Oc3ccccn3)cc2)cc1` the MIC was 25 µM (Mycobacterium tuberculosis; H37Rv, GAST-Fe medium; 1 weeks, pH 6.6).
`Cc1ccc(S(=O)(=O)N2C(=O)CSC2c2ccc(F)cc2)cc1` (stereo not shown) has an MIC of 8 µg/mL (Salmonella enterica; microbial growth, broth dilution; TYPHIMURIUM).
The MIC of `Brc1ccc(NCc2ccc(Oc3ccccn3)cc2)cc1` is reported as 70 µM (Mycobacterium tuberculosis; H37Rv, GAST-Fe medium; 2 weeks, pH 6.6).
For `COC(=O)c1ccc(NC(=O)c2[nH]c(C)c(Cl)c2Cl)c(N2CCC[C@H](N)C2)c1.Cl`, the MIC was 8 µg/mL (Enterococcus faecium; microbial growth, broth dilution; ATCC35667).
`Cc1ccc(S(=O)(=O)N2C(=O)CSC2c2ccccc2Br)cc1` (stereo not shown) has an MIC of 32 µg/mL (Salmonella enterica; microbial growth, broth dilution; TYPHIMURIUM).
With `COc1cccc(NCc2ccc(Oc3ccccn3)cc2)c1` the MIC was > 50 µM (Mycobacterium tuberculosis; H37Rv, 7H9/ADC/Tween medium; 2 weeks).
`O=c1ccc2ncc(=O)n3c2n1C[C@H]3CN1CCC(NCc2cc3c(cn2)OCCC3)CC1` gave an MIC of 2 to 8 µg/mL (Salmonella enterica; microbial growth, broth dilution; ATCC14028 TYPHIMURIUM).
The MIC of `Brc1cccc(NCc2ccc(Oc3ccccn3)cc2)c1` is reported as 35 µM (Mycobacterium tuberculosis; H37Rv, GAST-Fe medium; 1 weeks, pH 6.6).
For `CCc1cc(=O)c2c(O)c3ccoc3c(OC)c2o1`, the MIC was 64 µg/mL (Staphylococcus epidermidis; broth microdilution; ATCC 35984; 19 h, 35 °C).
`CC1(C)S[C@@H]2[C@H](NC(=O)[C@H](N)c3ccccc3)C(=O)N2[C@H]1C(=O)O` has an MIC of 0.62 µg/mL (Limosilactobacillus fermentum; broth microdilution; ATCC 14931, MRS medium; 24 h, 37 °C).
The MIC of `Cc1ccc(S(=O)(=O)N2C(=O)CSC2c2ccccc2Cl)cc1` (stereo not shown) is reported as 64 µg/mL (Salmonella enterica; microbial growth, broth dilution; TYPHIMURIUM).
The MIC of `Cc1[nH]c(C(=O)Nc2ccc(C(=O)NCc3n[nH]c(=O)o3)cc2N2CCN(C(=O)OC(C)(C)C)CC2)c(Cl)c1Cl` is reported as 32 µg/mL (Enterococcus faecium; microbial growth, broth dilution; ATCC35667).
`Cc1ccc(S(=O)(=O)N2C(=O)CSC2c2ccccc2)cc1` (stereo not shown) has an MIC of > 256 µg/mL (Salmonella enterica; microbial growth, broth dilution; TYPHIMURIUM).
With `CC1(C)SC2C(NC(=O)C(NC(=O)C3=C(O)C(Cc4ccc(O)cc4)NC3=O)c3ccccc3)C(=O)N2C1C(=O)O` (stereo not shown) the MIC was 25 µg/mL (Escherichia coli; broth microdilution; BW25113, Mueller-Hinton broth; with: 2,2'-bipyridyl 30 µg/mL).
The MIC of `Cc1ccccc1NCc1ccc(Oc2ccccn2)cc1` is reported as > 100 µM (Mycobacterium tuberculosis; H37Rv, 7H9/ADC/Tween medium; 2 weeks).
The MIC of `CC1(C)SC2C(NC(=O)C(NC(=O)C3=C(O)C(Cc4ccsc4)NC3=O)c3ccccc3)C(=O)N2C1C(=O)O` (stereo not shown) is reported as 50 µg/mL (Escherichia coli; broth microdilution; BW25113, Mueller-Hinton broth).
`Cc1ccc(C2SCC(=O)N2S(=O)(=O)c2ccc(C)cc2)cc1` (stereo not shown) gave an MIC of > 256 µg/mL (Salmonella enterica; microbial growth, broth dilution; TYPHIMURIUM).
The MIC of `Clc1ccccc1NCc1ccc(Oc2ccccn2)cc1` is reported as > 100 µM (Mycobacterium tuberculosis; H37Rv, 7H9/ADC/Tween medium; 2 weeks).
The MIC of `CCOC(=O)c1c(N)csc1-c1cn(-c2ccccc2)nc1-c1ccc(C)cc1` is reported as 0.124 ± 0.3 µg/mL (Bacillus subtilis; broth microdilution; clinical urinary isolate; compound gamma-irradiated 20 kGy).
`pneumocandin J` gave an MIC of 3.2 µg/mL (Candida tropicalis; broth microdilution, resazurin; ATCC 750; 24 h, 35 °C).
`CC1(C)SC2C(NC(=O)C(NC(=O)C3=C(O)C4(CC4)NC3=O)c3ccccc3)C(=O)N2C1C(=O)O` (stereo not shown) has an MIC of 100 µg/mL (Escherichia coli; broth microdilution; BW25113, Mueller-Hinton broth).
For `COc1ccc(-c2n(CC(=O)OC3CC(C)CCC3C(C)C)c3ccccc3[n+]2C)cc1` (stereo not shown), the MIC was 5 µM (Mycolicibacterium smegmatis; microbial growth).
For `CN1CC(O)=C(C(=O)NC(C(=O)NC2C(=O)N3C2SC(C)(C)C3C(=O)O)c2ccccc2)C1=O` (stereo not shown), the MIC was 100 µg/mL (Escherichia coli; broth microdilution; BW25113, Mueller-Hinton broth; 18 h, without clavulanic acid).
With `Cc1ccc(NCc2ccc(Oc3ccccn3)cc2)cc1` the MIC was 21.6 µM (Mycobacterium tuberculosis; H37Rv, GAST-Fe medium; 1 weeks, pH 6.6).
`Cc1[nH]c(C(=O)Nc2ccc(C(=O)O)cc2N2CCC[C@H](N)C2)c(Cl)c1Cl.Cl` gave an MIC of > 32 µg/mL (Enterococcus faecium; microbial growth, broth dilution; ATCC35667).
For `CCc1cc(=O)c2c(OCC(O)CNC(C)C)c3ccoc3c(OC)c2o1` (stereo not shown), the MIC was > 256 µg/mL (Staphylococcus epidermidis; broth microdilution; ATCC 12228; 19 h, 35 °C).
`chlorobiphenyl vancomycin` gave an MIC of 2.5 µg/mL (Enterococcus faecium; ATCC BAA-2317, VanA; 16 h, 37 °C).
The MIC of `Cc1ccc(S(=O)(=O)N2C(=O)CSC2c2ccccc2C)cc1` (stereo not shown) is reported as 128 µg/mL (Salmonella enterica; microbial growth, broth dilution; TYPHIMURIUM).
For `Cc1[nH]c(C(=O)Nc2ccc(C(=O)O)cc2N2CCN(C(=O)OC(C)(C)C)CC2)c(Cl)c1Cl`, the MIC was 16 to 32 µg/mL (Enterococcus faecium; microbial growth, broth dilution; ATCC35667).
`COc1ccc2ncc(F)c(CCN3CCC([C@@H](O)[C@H](O)c4ccc5c(c4)OCCO5)CC3)c2n1` gave an MIC of 64 µg/mL (Salmonella enterica; microbial growth, broth dilution; ATCC14028 TYPHIMURIUM).
